Measured values pooled from the literature.
A part holds a random share of what one study measured.
Chain of UniProt O15294 (whole entry, looked up): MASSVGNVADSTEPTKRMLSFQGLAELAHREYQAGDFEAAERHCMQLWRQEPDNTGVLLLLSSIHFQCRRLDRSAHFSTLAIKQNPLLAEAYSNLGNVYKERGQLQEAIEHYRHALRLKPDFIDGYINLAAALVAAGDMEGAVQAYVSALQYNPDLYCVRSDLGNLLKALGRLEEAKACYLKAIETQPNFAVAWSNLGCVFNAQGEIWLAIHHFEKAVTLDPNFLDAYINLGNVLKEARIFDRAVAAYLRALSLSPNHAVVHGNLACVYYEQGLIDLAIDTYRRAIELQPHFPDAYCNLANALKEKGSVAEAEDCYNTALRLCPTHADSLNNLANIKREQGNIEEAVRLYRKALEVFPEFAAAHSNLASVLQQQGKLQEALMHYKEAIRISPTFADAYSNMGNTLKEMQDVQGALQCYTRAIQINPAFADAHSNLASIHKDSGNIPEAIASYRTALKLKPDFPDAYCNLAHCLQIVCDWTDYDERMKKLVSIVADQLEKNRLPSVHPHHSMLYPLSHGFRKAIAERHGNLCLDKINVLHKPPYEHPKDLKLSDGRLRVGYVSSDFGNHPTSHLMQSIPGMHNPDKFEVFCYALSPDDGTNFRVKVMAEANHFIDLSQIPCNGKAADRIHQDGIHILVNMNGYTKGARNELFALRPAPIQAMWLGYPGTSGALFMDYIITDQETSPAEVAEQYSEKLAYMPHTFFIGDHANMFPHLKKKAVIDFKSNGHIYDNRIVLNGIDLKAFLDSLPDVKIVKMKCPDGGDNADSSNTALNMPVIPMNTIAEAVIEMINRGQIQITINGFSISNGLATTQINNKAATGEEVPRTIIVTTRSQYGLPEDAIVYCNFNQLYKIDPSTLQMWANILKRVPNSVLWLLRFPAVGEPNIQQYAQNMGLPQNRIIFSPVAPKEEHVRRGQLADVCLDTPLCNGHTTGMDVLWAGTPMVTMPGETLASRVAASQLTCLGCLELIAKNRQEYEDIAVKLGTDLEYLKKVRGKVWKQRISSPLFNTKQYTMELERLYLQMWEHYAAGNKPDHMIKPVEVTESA

Study 1 — method: RNA Bind-n-Seq; form: RNA; sample: in vitro; concentration: 20 nM; notes: 6-mer, flanks averaged, single round; together with: 150 mM KCl; baseline: input library; direction: higher = stronger binding; measurement: 6-mer enrichment (R)
Target: TAR DNA-binding protein 43, full length, His tag (TARDBP, Homo sapiens, UniProt Q13148, residues 1-414)
AUUUUC: 0.625
AUUAAA: 0.6
CCGUUU: 0.609
UAGAGC: 0.815
GAGUUG: 1.31
GCAGGA: 1.63
GCGCCC: 0.807
UCUUAA: 0.554

Study 2 — method: aptamer microarray, sandwich; form: DNA with 2'F-ANA; sample: in vitro; concentration: 200 nM; together with: Cy3 exosite-II aptamer, 400 nM; direction: higher = stronger binding; measurement: mean fluorescence intensity; strand: GGTTGGTGTGGTTGG
Target: Prothrombin, mature alpha-thrombin (F2, Homo sapiens, UniProt P00734)
Notes: whole 15-mer aptamer, many near background
2'F-ANA at 1 5 7 8 9 12 13 14: 44.2 a.u.
2'F-ANA at 2 3 4 5 6 7 8 10 11 12 15: 93.2 a.u.
2'F-ANA at 4 5 6 9 10 14: 42.7 a.u.
2'F-ANA at 4 5 6 8 9 11 13: 82.2 a.u.
2'F-ANA at 1 2 4 5 6 9 10 11 12 13 14: 52.8 a.u.
2'F-ANA at 1 3 4 5 8 10 11 12: 53.7 a.u.
2'F-ANA at 1 2 3 4 7 9 10 12 13 14: 53.4 a.u.
2'F-ANA at 1 10 12: 68.7 a.u.

Further values, each from its own experiment
NMSDHHRTSYYHVRH
minimum log2 enrichment ratio (OGT (Homo sapiens, UniProt O15294); binding, phage display NGS; peptide; baseline: input library): 2.57

PhoQ, residues 284 288 289 292 302 303 NLAAMI
fold induction (PhoP, residues 12 14 15 18 19 SYFRT (Escherichia coli, UniProt P23836); Sort-seq, item: YFP reporter; E. coli; PhoQ-PhoP variant library, together with: 10 µM Mg2+; baseline: high Mg2+ state, higher = stronger signaling): 11.7

A few entries again (further values, each from its own experiment):
NMSDHHRTSYYHVRH
minimum log2 enrichment ratio (OGT (Homo sapiens, UniProt O15294); binding, phage display NGS; peptide; baseline: input library): 2.57

PhoQ, residues 284 288 289 292 302 303 NLAAMI
fold induction (PhoP, residues 12 14 15 18 19 SYFRT (Escherichia coli, UniProt P23836); Sort-seq, item: YFP reporter; E. coli; PhoQ-PhoP variant library, together with: 10 µM Mg2+; baseline: high Mg2+ state, higher = stronger signaling): 11.7
